{"sequences": {"note": "Amino acid sequences for entries named in this document (tags omitted).", "UniProt Q16539, whole entry": "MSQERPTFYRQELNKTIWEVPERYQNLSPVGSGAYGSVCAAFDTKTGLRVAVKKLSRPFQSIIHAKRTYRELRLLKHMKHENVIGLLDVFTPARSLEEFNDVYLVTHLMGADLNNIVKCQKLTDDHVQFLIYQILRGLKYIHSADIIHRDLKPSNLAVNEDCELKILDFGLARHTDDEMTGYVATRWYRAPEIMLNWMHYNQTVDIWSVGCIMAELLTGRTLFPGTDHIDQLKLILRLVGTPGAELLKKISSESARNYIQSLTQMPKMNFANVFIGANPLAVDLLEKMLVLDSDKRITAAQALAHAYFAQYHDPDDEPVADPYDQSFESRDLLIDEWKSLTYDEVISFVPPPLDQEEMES", "UniProt P08183, whole entry": "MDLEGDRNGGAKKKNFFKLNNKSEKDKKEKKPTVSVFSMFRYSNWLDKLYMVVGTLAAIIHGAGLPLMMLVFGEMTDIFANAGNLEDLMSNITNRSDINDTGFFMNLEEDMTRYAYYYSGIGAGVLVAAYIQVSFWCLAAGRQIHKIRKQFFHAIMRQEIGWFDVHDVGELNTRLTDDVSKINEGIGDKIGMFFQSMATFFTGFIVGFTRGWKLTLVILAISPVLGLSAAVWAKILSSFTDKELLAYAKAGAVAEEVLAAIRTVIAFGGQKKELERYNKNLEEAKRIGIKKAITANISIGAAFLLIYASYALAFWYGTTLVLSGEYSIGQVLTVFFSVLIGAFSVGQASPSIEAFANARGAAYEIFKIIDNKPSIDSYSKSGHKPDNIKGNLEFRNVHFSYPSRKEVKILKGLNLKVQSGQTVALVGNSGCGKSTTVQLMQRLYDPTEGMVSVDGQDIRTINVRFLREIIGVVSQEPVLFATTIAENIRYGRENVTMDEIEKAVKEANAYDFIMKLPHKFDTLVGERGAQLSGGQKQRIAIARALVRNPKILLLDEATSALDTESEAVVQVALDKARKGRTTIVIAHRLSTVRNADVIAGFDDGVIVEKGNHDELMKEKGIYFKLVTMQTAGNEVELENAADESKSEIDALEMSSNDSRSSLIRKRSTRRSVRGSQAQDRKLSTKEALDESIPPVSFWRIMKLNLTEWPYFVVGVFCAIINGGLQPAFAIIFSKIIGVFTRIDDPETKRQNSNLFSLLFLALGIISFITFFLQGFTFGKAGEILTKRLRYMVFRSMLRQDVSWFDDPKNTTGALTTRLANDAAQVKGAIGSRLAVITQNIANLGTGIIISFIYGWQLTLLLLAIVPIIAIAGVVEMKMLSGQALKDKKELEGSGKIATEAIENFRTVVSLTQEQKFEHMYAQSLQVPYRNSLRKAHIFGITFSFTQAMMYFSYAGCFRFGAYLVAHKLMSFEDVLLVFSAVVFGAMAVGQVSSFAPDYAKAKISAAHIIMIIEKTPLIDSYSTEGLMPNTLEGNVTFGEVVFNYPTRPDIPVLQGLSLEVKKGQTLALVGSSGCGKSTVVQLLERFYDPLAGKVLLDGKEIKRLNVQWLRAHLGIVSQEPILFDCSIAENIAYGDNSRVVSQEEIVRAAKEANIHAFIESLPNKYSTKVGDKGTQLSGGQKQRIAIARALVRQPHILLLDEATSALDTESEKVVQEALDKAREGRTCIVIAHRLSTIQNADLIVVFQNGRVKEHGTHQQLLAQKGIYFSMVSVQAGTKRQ"}, "data": "Published values collected from several papers", "note": "Protocols differ between the studies behind these lines. Values joined by “and” are separate records of one study, mostly repeats; a detail may differ. ± gives the spread as reported."}
{"Compound": "CC(C)CC(NC(=O)C(Cc1ccccc1)NC(=O)c1cnc(C(=O)NC(Cc2ccccc2)C(=O)NC(CC(C)C)B(O)O)cn1)B(O)O (stereo not drawn)", "tested on": "RPMI-8226", "test": "cell viability, CellTiter-Glo", "conditions": "48 h", "quantity": "IC50", "result": "0.0032 µM"}
{"Compound": "CC/C=C\\C/C=C\\CCC/C=C/C=C/C=C\\CCCC(=O)O", "tested on": "HL-60", "test": "flow cytometry", "conditions": "12.5 µM, 24 h", "quantity": "G2/M phase cells", "result": "8.9%"}
{"Compound": "CN(C)CCNC(=O)c1cccc2ccc(-c3ccc(-c4ccccc4)cc3)nc12", "tested on": "K562", "test": "cytotoxicity, XTT", "conditions": "96 h", "quantity": "IC50", "result": "1.8 ± 1.2 µM"}
{"Compound": "CN1C(=O)CCc2cc(CNC(C)(C)[C@@H](O)c3ccccc3)ccc21", "system": "male CD-1 mouse, plasma", "conditions": "subcutaneous, 10 mg/kg", "quantity": "AUC(0-t)", "result": "13300 ng·min/mL/g"}
{"Compound": "CC(C)C[C@H](NC(=O)[C@H](C)NC(=O)[C@H](CCCNC(=N)N)NC(=O)[C@H](CCCNC(=N)N)NC(=O)[C@H](CCCNC(=N)N)NC(=O)[C@H](C)NC(=O)[C@H](CC(C)C)NC(=O)[C@H](CCCNC(=N)N)NC(=O)[C@H](CO)NC(=O)[C@H](CCCCN)NC(=O)[C@H](CO)NC(=O)Cn1cc(COC(=O)[C@]2(C)C=C(C(=O)OC(C)(C)C)C(=O)CC2)nn1)C(=O)O", "tested on": "Mitogen-activated protein kinase 14 (MAPK14, Homo sapiens, UniProt Q16539)", "test": "enzyme activity, inhibitor, D-SENSOR kinase", "conditions": "0.09145 µM, unit not given", "how to read": "baseline: untreated", "quantity": "remaining activity", "result": "0.796 and 0.791 and 0.69"}
{"Compound": "[2H]C(C)(CO[C@H]1CC[C@H](CN2CCN(c3ccc4c(c3F)n(C)c(=O)n4C3CCC(=O)NC3=O)CC2)CC1)NS(=O)(=O)c1ccc(Nc2ncc(C(F)(F)F)c([C@H]3CC[C@@](C)(O)CC3)n2)c(C)c1 (stereo partly drawn)", "tested on": "ATP-dependent translocase ABCB1 (ABCB1, Homo sapiens, UniProt P08183)", "test": "bidirectional permeability", "system": "MDCK transfected with ABCB1", "how to read": "baseline: B-A over A-B permeability", "quantity": "efflux ratio", "result": "> 26"}
{"Compound": "C=C(C)C(=O)Nc1ccc(-c2c(-c3ccc(Oc4nccc(C)n4)c(F)c3)c3c(N)ncnc3n2C)cc1", "tested on": "MFE-280", "test": "cell growth, CellTiter-Glo", "conditions": "120 h", "quantity": "EC50", "result": "0.665 µM"}
{"Compound": "N#Cc1c(-c2ccc(Cl)cc2Cl)n(-c2nc(-c3ccc(Cl)cc3)c3c(NC(=O)c4ccccc4)nnc-3[nH]2)[nH]c1=O", "tested on": "SF-268", "test": "SRB", "conditions": "10 µM", "quantity": "cell growth", "result": "38.7%"}
{"Compound": "Cc1c(Cn2c(C)nc3c(C(=O)O)cc(N4CCOCC4)cc32)cccc1C(F)(F)F", "tested on": "22Rv1", "test": "cell growth, WST-8", "conditions": "3 days", "quantity": "EC50", "result": "12 µM"}
{"Compound": "CN(C)CCNC(=O)c1cc([N+](=O)[O-])cc2ccc(-c3ccccc3)nc12", "tested on": "MDA-MB-468", "test": "cytotoxicity, MTT", "conditions": "3 h exposure, 96 h total", "quantity": "IC50", "result": "12 ± 2.2 µM"}
{"Compound": "NS(=O)(=O)c1nnc(NC(=O)CC2C3CC4CC(C3)CC2C4)s1 (stereo not drawn)", "system": "PBS", "conditions": "pH 7.4", "quantity": "kinetic solubility", "result": "57.3 µM"}
{"Compound": "CCOC(=O)c1c(-c2ccc(Cl)cc2Cl)n(-c2nc(-c3ccc(Cl)cc3)c3c(NC(=O)c4ccccc4)nnc-3[nH]2)[nH]c1=O", "tested on": "ACHN", "test": "SRB", "conditions": "10 µM", "quantity": "cell growth", "result": "12.5%"}
{"note": "Repeated from above:"}
{"Compound": "CN(C)CCNC(=O)c1cc([N+](=O)[O-])cc2ccc(-c3ccccc3)nc12", "tested on": "MDA-MB-468", "test": "cytotoxicity, MTT", "conditions": "3 h exposure, 96 h total", "quantity": "IC50", "result": "12 ± 2.2 µM"}
{"Compound": "[2H]C(C)(CO[C@H]1CC[C@H](CN2CCN(c3ccc4c(c3F)n(C)c(=O)n4C3CCC(=O)NC3=O)CC2)CC1)NS(=O)(=O)c1ccc(Nc2ncc(C(F)(F)F)c([C@H]3CC[C@@](C)(O)CC3)n2)c(C)c1 (stereo partly drawn)", "tested on": "ATP-dependent translocase ABCB1 (ABCB1, Homo sapiens, UniProt P08183)", "test": "bidirectional permeability", "system": "MDCK transfected with ABCB1", "how to read": "baseline: B-A over A-B permeability", "quantity": "efflux ratio", "result": "> 26"}
